Assay results from different studies.
Numbered parts are unrelated; each lists some results of a single study.
Sequence of UniProt Q8IY84 (whole entry, looked up): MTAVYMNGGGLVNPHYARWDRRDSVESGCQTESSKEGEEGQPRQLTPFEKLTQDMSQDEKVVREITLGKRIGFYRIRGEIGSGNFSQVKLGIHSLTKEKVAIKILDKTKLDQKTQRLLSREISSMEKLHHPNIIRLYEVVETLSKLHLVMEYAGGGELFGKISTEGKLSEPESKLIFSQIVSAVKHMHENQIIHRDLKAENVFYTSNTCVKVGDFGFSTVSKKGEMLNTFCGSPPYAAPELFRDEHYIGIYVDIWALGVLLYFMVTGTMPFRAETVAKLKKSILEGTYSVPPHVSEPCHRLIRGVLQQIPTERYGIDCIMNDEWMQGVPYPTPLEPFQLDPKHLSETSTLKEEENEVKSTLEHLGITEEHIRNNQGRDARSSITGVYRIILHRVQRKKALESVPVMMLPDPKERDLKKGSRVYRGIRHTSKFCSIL
Sequence of UniProt Q13043 (whole entry, looked up): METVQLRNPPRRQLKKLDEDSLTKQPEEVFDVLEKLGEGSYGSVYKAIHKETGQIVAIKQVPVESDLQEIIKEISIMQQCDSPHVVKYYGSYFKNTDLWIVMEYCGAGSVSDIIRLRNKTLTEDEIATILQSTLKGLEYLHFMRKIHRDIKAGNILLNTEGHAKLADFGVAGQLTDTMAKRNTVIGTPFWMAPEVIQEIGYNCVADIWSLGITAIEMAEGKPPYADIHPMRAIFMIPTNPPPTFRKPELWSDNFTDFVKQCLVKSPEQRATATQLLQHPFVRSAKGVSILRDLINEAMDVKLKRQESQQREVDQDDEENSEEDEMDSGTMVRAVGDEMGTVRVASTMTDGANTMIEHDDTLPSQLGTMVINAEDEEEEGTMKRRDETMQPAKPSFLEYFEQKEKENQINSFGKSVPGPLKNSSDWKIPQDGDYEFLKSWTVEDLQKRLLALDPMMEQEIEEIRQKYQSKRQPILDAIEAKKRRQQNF
Sequence of UniProt Q9UM73 (whole entry, looked up): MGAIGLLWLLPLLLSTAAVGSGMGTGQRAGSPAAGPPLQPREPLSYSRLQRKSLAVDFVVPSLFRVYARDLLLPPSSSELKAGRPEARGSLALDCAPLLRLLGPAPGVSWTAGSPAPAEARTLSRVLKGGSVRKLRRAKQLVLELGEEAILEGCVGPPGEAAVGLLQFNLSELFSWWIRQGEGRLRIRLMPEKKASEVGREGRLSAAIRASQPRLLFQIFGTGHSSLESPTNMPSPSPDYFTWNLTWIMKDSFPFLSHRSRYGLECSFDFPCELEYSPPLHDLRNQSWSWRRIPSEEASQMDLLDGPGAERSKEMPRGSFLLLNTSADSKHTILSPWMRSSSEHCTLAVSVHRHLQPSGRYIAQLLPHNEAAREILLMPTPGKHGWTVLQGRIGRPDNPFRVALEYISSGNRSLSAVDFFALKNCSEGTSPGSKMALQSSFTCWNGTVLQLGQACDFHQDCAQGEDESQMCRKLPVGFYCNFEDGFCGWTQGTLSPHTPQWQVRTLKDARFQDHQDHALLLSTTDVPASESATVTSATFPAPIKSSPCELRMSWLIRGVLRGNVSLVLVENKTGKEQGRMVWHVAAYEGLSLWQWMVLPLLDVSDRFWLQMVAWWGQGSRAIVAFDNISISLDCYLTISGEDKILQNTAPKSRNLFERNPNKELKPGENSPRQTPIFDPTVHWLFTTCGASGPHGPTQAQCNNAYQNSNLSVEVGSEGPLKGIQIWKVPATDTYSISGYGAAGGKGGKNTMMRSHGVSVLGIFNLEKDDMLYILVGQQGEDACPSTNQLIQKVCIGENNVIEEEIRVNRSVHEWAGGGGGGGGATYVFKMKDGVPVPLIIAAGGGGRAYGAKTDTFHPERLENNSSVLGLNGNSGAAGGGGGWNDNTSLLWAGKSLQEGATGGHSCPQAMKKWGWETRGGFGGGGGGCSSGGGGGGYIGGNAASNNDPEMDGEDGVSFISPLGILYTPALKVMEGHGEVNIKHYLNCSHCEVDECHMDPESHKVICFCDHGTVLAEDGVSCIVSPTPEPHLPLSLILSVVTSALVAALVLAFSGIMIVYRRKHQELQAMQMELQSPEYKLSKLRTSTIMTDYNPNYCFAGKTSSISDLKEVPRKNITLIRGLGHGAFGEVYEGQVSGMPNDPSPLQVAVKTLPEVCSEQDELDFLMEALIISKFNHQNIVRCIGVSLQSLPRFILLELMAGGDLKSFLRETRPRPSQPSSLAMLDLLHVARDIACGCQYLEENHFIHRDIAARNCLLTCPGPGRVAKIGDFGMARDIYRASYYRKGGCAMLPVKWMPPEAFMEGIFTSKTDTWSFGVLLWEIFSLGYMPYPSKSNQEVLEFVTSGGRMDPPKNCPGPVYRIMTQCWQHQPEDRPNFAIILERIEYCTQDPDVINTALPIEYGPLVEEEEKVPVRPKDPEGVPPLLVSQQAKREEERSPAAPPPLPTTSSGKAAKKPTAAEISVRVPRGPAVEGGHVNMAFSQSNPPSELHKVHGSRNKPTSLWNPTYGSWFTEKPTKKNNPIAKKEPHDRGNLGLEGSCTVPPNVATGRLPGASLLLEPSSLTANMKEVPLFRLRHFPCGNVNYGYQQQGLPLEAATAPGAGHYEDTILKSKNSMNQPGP
Sequence of UniProt Q8TDC3 (whole entry, looked up): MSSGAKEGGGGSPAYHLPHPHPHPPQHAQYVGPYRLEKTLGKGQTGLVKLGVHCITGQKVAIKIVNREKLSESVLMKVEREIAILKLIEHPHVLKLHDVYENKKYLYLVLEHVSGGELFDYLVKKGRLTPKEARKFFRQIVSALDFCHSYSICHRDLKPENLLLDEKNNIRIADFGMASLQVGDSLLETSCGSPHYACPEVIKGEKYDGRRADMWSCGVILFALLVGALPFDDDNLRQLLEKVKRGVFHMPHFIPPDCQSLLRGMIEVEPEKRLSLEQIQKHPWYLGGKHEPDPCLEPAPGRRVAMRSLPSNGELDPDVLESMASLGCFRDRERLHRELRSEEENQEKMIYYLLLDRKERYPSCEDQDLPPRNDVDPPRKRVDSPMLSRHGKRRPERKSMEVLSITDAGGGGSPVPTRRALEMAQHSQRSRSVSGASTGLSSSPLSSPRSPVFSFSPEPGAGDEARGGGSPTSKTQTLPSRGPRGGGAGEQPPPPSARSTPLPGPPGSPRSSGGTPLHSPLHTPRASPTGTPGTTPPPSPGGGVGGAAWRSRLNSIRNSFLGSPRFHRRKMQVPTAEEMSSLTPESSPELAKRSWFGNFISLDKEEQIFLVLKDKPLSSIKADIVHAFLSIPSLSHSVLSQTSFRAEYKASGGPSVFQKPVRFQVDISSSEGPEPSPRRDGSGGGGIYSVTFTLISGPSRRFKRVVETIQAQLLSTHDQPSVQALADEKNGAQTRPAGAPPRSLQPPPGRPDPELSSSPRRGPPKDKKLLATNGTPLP
Sequence of UniProt P53778 (whole entry, looked up): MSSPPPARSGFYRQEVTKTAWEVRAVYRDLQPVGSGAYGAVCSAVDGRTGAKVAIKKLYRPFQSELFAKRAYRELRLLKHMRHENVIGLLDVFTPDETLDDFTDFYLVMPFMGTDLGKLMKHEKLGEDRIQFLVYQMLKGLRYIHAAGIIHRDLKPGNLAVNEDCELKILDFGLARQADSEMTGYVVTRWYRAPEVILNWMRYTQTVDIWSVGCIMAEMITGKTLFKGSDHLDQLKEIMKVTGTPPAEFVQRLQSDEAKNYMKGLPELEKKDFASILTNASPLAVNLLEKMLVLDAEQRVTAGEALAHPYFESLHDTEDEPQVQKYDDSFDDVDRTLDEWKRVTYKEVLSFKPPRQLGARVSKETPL

Sample 1
Target: Interferon regulatory factor 5, full length, phosphomimetic (IRF5, Homo sapiens, UniProt Q13568-2, residues 1-514, S451D/S453D/S456D/S462D)
Technique: protein-binding microarray
Form: double-stranded DNA, one strand shown
Matrix: in vitro
Concentration: 940 nM top
Setting: 60-bp whole probe
With: salmon DNA 0.4 mg/ml
Relative to: random background probes
Direction: higher = stronger binding
All sequences stand within: GCCTAGCAC … GTCTTGATTCGCTTGACGCTGCTG
`GACGGTATCCTTTTACTGACGTGCTAG`: “fitted relative affinity” 0.475 z-score.
`GGCGGTATCCTACTGCTGACGTGCTAG`: “fitted relative affinity” -0.186 z-score.
`ACATCTCTCTTAAATAGGGACGTGCTA`: “fitted relative affinity” 0.808 z-score.
Under “fitted relative affinity”, `GACGGTATCCATATCCTGACGTGCTAG` is recorded as 0.491 z-score.
`AACGGTCTCCTTTTCCTGACGTGCTAG`: “fitted relative affinity” 0.585 z-score.
Under “fitted relative affinity”, `GACGGCCTGGGGTATCGGGACGTGCTA` is recorded as 0.195 z-score.
`TTAGGTGTCGGTTTCGGTTAGTGCTAG` — result for “fitted relative affinity”: 7.76 z-score.
`TCACCTCTAGGTTCTCTGACTGTGCTA` — result for “fitted relative affinity”: -0.0698 z-score.

Sample 2
Target: cGMP-dependent protein kinase 1, isoform beta (PRKG1, Homo sapiens, UniProt Q13976)
Sequence of UniProt Q13976 (whole entry, looked up): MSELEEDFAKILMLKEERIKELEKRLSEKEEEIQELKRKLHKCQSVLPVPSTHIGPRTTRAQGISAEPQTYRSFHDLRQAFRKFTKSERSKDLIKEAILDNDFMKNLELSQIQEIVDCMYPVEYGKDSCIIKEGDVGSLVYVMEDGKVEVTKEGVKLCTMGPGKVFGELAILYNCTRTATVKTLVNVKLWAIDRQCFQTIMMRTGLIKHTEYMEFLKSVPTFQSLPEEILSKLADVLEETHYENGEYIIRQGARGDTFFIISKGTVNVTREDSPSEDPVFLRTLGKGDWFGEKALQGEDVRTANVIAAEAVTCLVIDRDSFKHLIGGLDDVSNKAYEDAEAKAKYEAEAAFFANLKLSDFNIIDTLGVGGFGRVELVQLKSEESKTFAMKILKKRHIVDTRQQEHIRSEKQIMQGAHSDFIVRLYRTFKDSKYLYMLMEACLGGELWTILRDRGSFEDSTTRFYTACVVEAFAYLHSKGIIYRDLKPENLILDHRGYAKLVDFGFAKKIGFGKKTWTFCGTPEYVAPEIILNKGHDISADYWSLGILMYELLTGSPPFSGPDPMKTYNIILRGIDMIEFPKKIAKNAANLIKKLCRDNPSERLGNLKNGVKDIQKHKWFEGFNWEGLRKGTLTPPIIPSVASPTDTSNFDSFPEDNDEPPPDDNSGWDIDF
Observed: enzyme activity
Mode: inhibitor
Concentration: 0.5 µM
Relative to: control
`COc1cc2nccc(Oc3ccc(NC(=S)NC(=O)c4ccccc4C)cc3)c2cc1OC` gave a remaining activity of 101%.
With `Cc1ccc(NC(=O)c2ccc(CN3CCN(C)CC3)cc2)cc1Nc1nc(-c2cccnc2)cs1` the remaining activity was 93.8%.
`O=C1NC(=O)C(c2cn(CCCn3ccnc3)c3ccccc23)=C1Nc1ccccc1` gave a remaining activity of 88.8%.
With `COc1cc2ncnc(Nc3ccc(F)c(Cl)c3)c2cc1OCCCN1CCOCC1` the remaining activity was 103%.
`O=S(=O)(c1cccc2cnccc12)N1CCCNCC1` gave a remaining activity of 87.7%.
For `CO[C@H]1C[C@@H]2CC[C@@H](C)[C@@](O)(O2)C(=O)C(=O)N2CCCC[C@H]2C(=O)O[C@H]([C@H](C)C[C@@H]2CC[C@@H](O)[C@H](OC)C2)CC(=O)[C@H](C)/C=C(\C)[C@@H](O)[C@@H](OC)C(=O)[C@H](C)C[C@H](C)/C=C/C=C/C=C/1C`, the remaining activity was 91%.
With `O=C1NC(=O)c2cc(Nc3ccc(F)cc3)c(Nc3ccc(F)cc3)cc21` the remaining activity was 103%.
With `Nc1ncnc2n[nH]c(Nc3ccc(F)cc3)c12` the remaining activity was 96.9%.

Sample 3
Target: Protein C-ets-1 (ETS1, Homo sapiens, UniProt P14921, residues 1-441, full length assumed)
Sequence of UniProt P14921 (whole entry, looked up): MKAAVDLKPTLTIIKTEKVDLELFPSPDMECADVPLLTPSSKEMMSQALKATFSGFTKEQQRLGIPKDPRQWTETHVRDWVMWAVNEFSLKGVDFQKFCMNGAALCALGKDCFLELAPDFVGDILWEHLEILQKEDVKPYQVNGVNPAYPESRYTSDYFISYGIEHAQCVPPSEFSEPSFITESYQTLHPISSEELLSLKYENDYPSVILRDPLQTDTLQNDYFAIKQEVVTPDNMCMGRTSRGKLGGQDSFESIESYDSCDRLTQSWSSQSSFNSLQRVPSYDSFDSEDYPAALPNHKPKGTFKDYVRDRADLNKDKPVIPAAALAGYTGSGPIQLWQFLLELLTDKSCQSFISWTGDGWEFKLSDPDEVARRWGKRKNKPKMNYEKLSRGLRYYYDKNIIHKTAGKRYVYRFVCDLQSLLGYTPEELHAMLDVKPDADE
Technique: protein-binding microarray
Form: double-stranded DNA, one strand shown
Matrix: in vitro
Concentration: not given
Setting: k-mer, scored over probes, only values ≥0.25
Direction: higher = stronger binding
`CGTCCGGA` gave an E-score of 0.443.
With `ATCCGGAC` the E-score was 0.434.
The E-score of `CCCGCCCC` is reported as 0.364.
`GACGGAAA` has an E-score of 0.452.
With `CCGGATAA` the E-score was 0.433.
`AAATGGAG` gave an E-score of 0.26.
With `CCGGAAGC` the E-score was 0.495.
With `AGCTTCCC` the E-score was 0.28.

Sample 4
SMILES: COCCOc1nc(-c2ccc(Cl)nc2)nc2c1CN(C(=O)c1ncn3ccccc13)CC2
Technique: competition with immobilised ligand
Concentration: 0.1 µM
It gave 100% for remaining binding (EGFR (Homo sapiens, UniProt P00533, del747-752/P753S); cell-free assay).
The remaining binding was 91% (ALK (Homo sapiens, UniProt Q9UM73); cell-free assay).
For DCLK3 (Homo sapiens, UniProt Q9C098); cell-free assay: remaining binding read 100%.
It gave 90% for remaining binding (FGFR4 (Homo sapiens, UniProt P22455); cell-free assay).
The remaining binding was 68% (LATS2 (Homo sapiens, UniProt Q9NRM7); cell-free assay).
It gave 100% for remaining binding (MAPK14 (Homo sapiens, UniProt Q16539); cell-free assay).
EGFR (Homo sapiens, UniProt P00533, L858R); cell-free assay — remaining binding: 83%.
For Ribosomal protein S6 kinase alpha-6, C-terminal kinase domain (RPS6KA6, Homo sapiens, UniProt Q9UK32); cell-free assay: remaining binding read 100%.
The remaining binding was 100% (STK35 (Homo sapiens, UniProt Q8TDR2); cell-free assay).
It gave 90% for remaining binding (AXL (Homo sapiens, UniProt P30530); cell-free assay).
EIF2AK2 (Homo sapiens, UniProt P19525); cell-free assay — remaining binding: 100%.
It gave 100% for remaining binding (MAP2K5 (Homo sapiens, UniProt Q13163); cell-free assay).
It gave 96% for remaining binding (MAP3K3 (Homo sapiens, UniProt Q99759); cell-free assay).
For DAPK3 (Homo sapiens, UniProt O43293); cell-free assay: remaining binding read 100%.
For STK4 (Homo sapiens, UniProt Q13043); cell-free assay: remaining binding read 100%.
It gave 100% for remaining binding (CDK5 (Homo sapiens, UniProt Q00535); cell-free assay).
The remaining binding was 100% (BRSK1 (Homo sapiens, UniProt Q8TDC3); cell-free assay).
It gave 100% for remaining binding (MAP3K15 (Homo sapiens, UniProt Q6ZN16); cell-free assay).
Tyrosine-protein kinase ABL1, non-phosphorylated (ABL1, Homo sapiens, UniProt P00519, F317I); binding — remaining binding: 100%.
STK32B (Homo sapiens, UniProt Q9NY57); cell-free assay — remaining binding: 100%.
It gave 72% for remaining binding (MAPK12 (Homo sapiens, UniProt P53778); cell-free assay).
For NIM1K (Homo sapiens, UniProt Q8IY84); cell-free assay: remaining binding read 100%.

Excerpt of the above (sample 2):
`O=S(=O)(c1cccc2cnccc12)N1CCCNCC1` gave a remaining activity of 87.7%.
For `CO[C@H]1C[C@@H]2CC[C@@H](C)[C@@](O)(O2)C(=O)C(=O)N2CCCC[C@H]2C(=O)O[C@H]([C@H](C)C[C@@H]2CC[C@@H](O)[C@H](OC)C2)CC(=O)[C@H](C)/C=C(\C)[C@@H](O)[C@@H](OC)C(=O)[C@H](C)C[C@H](C)/C=C/C=C/C=C/1C`, the remaining activity was 91%.
With `O=C1NC(=O)c2cc(Nc3ccc(F)cc3)c(Nc3ccc(F)cc3)cc21` the remaining activity was 103%.
With `Nc1ncnc2n[nH]c(Nc3ccc(F)cc3)c12` the remaining activity was 96.9%.
